Results of several laboratories.
Every numbered part comes from another study and shows a few of its results, in no order.

Series 1
Target: Prothrombin, mature alpha-thrombin (F2, Homo sapiens, UniProt P00734)
Method: aptamer microarray, sandwich
Molecule type: DNA with 2'F-ANA
Sample: in vitro
Concentration: 200 nM
Setting: whole 15-mer aptamer, many near background
Together with: Cy3 exosite-II aptamer, 400 nM
Reading: higher = stronger binding
Measurement: mean fluorescence intensity
Oligonucleotide: GGTTGGTGTGGTTGG
2'F-ANA at 1 4 5 6 8 10 11 12 13: 48.4 a.u.
2'F-ANA at 4 5 6 9 11 14 15: 47.8 a.u.
2'F-ANA at 1 2 5 11 12 14: 46.1 a.u.
2'F-ANA at 1 2 4 6 8 10 11 14 15: 51.5 a.u.
2'F-ANA at 1 2 5 6 7 8 9 10 11 12 13 14 15: 51.9 a.u.
2'F-ANA at 1 2 3 4 5 6 7 8 10 11 13: 82.2 a.u.
2'F-ANA at 4 8 11 12 13: 391 a.u.
2'F-ANA at 1 2 3 4 5 7 10 12 14: 46.8 a.u.
2'F-ANA at 2 3 4 6 10 11 12 13: 341 a.u.
2'F-ANA at 1 2 5 8 11 13 14: 53.7 a.u.
2'F-ANA at 3 5 6 7 10 12 15: 58.8 a.u.
2'F-ANA at 1 2 4 6 7 8 10 12 13 15: 68 a.u.
2'F-ANA at 1 2 4 7 9 10 11 15: 47.7 a.u.

Series 2
Target: Interferon regulatory factor 7, full length, phosphomimetic (IRF7, Homo sapiens, UniProt Q92985, residues 1-503, S471D/S472D/S475D/S476D/S477D/S483D/S484D/S487D)
UniProt Q92985, sequence (whole entry, unmodified, looked up): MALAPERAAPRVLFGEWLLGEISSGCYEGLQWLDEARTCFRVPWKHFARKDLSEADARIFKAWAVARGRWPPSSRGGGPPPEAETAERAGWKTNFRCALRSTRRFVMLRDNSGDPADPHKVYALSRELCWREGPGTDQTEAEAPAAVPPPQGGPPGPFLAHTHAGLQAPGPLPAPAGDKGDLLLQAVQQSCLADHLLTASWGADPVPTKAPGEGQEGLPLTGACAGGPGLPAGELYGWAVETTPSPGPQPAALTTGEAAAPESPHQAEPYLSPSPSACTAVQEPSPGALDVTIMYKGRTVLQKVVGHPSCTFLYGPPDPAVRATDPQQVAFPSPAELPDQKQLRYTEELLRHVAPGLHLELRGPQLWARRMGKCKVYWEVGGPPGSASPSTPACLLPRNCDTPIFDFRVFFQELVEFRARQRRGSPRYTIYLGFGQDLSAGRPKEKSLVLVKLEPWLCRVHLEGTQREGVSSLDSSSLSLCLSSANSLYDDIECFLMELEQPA
Method: protein-binding microarray
Molecule type: double-stranded DNA, one strand shown
Sample: in vitro
Concentration: 2200 nM top
Setting: 60-bp whole probe
Together with: salmon DNA 0.4 mg/ml
Relative to: random background probes
Reading: higher = stronger binding
Measurement: fitted relative affinity
All sequences stand within: GCCTAGCAC … GTCTTGATTCGCTTGACGCTGCTG
TTAGGTATCGTTATCCTTTAGTGCTAG: 1.34 z-score
CAAGTGATGTAGCTGGGAGCGTGCTAG: -0.268 z-score
TATTTTTTTCTAATTGAAATGTGCTAG: 1.43 z-score
GACGGTAGCGGTCTCGGGACGTGCTAG: -0.739 z-score
AACGATTTCGGGTTTCGAGACGTGCTA: 5.41 z-score
GACGGGATCGACTTTCGGGACGTGCTA: 2.39 z-score
GACGGACTGGGTCTCGAGACGTGCTAG: -0.722 z-score
GTCGGTTTCGGTCTCGGGACGTGCTAG: 8.68 z-score
CTTTCTATCTCTGTTTTTGCGTGCTAG: 3.55 z-score
TTAGATATCGGGTATTGATTAGTGCTA: 0.148 z-score
GACGGACTACTACTGCTGACGTGCTAG: 0.325 z-score
TCAAAAAATGGAAATCTAACTGTGCTA: -1.39 z-score
TCACCTTCCTCTTTTACACTGTGCTAG: 3.19 z-score
ATTAGTATGTTCACTATTTAAGTGCTA: 0.497 z-score

Series 3
Target: RNA binding protein fox-1 homolog 2, RRM domain, GST-SBP tag (RBFOX2, Homo sapiens, UniProt O43251-10, residues 100-194)
Method: RNA Bind-n-Seq
Molecule type: RNA
Sample: in vitro
Concentration: 365 nM
Setting: natural RNA segment, single round, ends assumed
Relative to: no-protein control
Reading: higher = stronger binding
Measurement: RBNS enrichment (R)
All sequences stand within: GGGAGUUCUACAGUCCGACGAUC … UGGAAUUCUCGGGUGCCAA
Residues (chain): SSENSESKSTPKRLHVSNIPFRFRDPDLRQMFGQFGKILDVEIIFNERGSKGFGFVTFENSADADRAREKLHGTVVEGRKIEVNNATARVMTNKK
CAUGUACUAGUGGAAAAGUCUAGUGAAAAGGGCAGAAUCUGCAGCUGUAACAAAGCUAAGAACAGCACUUGACUAGUUUGGGCCCAAUCCCUGAUCUGAGUUGAUUUGUU: 0.388
GUUCAUCAGCUUAGGUCAUUUGAAAGAUAUAAGAGCUUAAGGCAAGAAAGAAAUAACAUGGAAUUCUAUUUGAAGGACAACAGAACAUUCUUGGAAAAGCAGCUCCAGUU: 0.324
CCUGUGUAACUCUGCUCUGAGGAACAGGUGUUUCCCAACUGGAUUCGCCUUUUCUAGUCCAGUAGAGUUGGCACCAAUCCAGCCUUAAAUGGUCCUGGGGAUGCCACCUG: 0.18
ACCCACCUCACAGGCCACCUCAGUGGCGCCUGCCCACUGCGGGCUGGCUGCUCCUACCUACCUCGCCGAGCUGUCGGAGGGCUGGACGCUCCUGGCAGUGCUGAAGGAGG: 0.325
GUGCCUUCCAAACCAAACUGCCCCUCAUGAGGUUAGGGUCCCCCACCCUCCACCUGCCCAGAGGCCAACUCUGUUCCCUUCUCCUUUCAUCCCAGAGGGGCCUCAUCAGC: 0.538
AUAGAGGCUGGGCAUCACAUCAAAUGGGACUGUGGUGUUUGGUGAAAACCUUCCUGAGGAUCUGGAUUCAGGACCCUCCAUGACUGGCCUAUUUACUGUUUACAGCUGGC: 0.397
GGUGAGAGGGCUGGUAUGUCAUGUUGUUAUGAUACAGUCGAAAUUUGUCAAUGCAGUGUGAAUGUUCUACAUAAAGUGCUUUAACCCUUAACAUUUCCUGGUCAGGAAGG: 0.567
GUGUGCCUCCCCUGCCCUCGGCCCCUAGCUGAUUUCUCCCCUAGAUAUGGUGCACUGUUUCCCUGGGUGGCCUUCUUGUGGCCCCAUGGGCCACAGGGUGCAGGAACGUA: 0.403
UACUGAGAAUCUAGGCCACCCCAACCUCUGUUCCCCACCCAGUUCUUCAUUUGGAGGAAUCACCCCAUUUCAGAGUUAUCAAGAGACACUCCCCCCUCCAUUCCCACCCC: 0.779
UGCCUAUAGCCCUUUACCCUGAGCACCACCCCAACAGACUGGGGACCAGCCCCCUCGCCUGCCUGUGUCUCUCCCCAAACCCCUUUAGAUGGGGAGGGAAGAGGAGGAGA: 0.488
ACCUGUGUAUUUAUCCUUGAUCAUAGUUUGCUUAUUUAUGUUUAACUCUUCGGACUUCAGAGCACUUUAUGUAGUUGAAUAAACCCUAGAGGUUGAGGUGACUAAAAGGU: 0.45
CUCGAGGGGUAGCUGUCUCCUGCAGAGACAAGAGCCGAAGCACUGGUCUCAUUGAAGACGACACGUACUACCCCAUAAGCUAGUAAGCCAGCAAGAAAGGCCAUGCCACC: 0.246

Series 4
Target: Fragile X messenger ribonucleoprotein 1, C-terminal low-complexity region (Fmr1, Mus musculus, UniProt P35922)
Method: RNA Bind-n-Seq
Molecule type: RNA
Sample: in vitro
Concentration: 200 nM
Setting: whole 134-nt RNA, ends assumed
Together with: 150 mM KCl
Relative to: input library
Reading: higher = stronger binding
Measurement: log2 enrichment
All sequences stand within: GGGAGUUCUACAGUCCGACGAUC … UGGAAUUCUCGGGUGUCAAGG
UGGGAGGUGGAUUUUGUGUAUUUUUUUAGCUCAUUUCCAGGGGUGGGAAUUUUUUUUUAAUAUGUGUCAUGAAUAAAGUUGUUUUUGAAA: 0.352
UGGCCCUGGUGGCAUGCGGGGAGGAAGAGGUGGCCUCAUGGAUCGUGGUGGUCCCGGUGGAAUGUUCAGAGGUGGCCGUGGUGGUGACAG: 0.13
UGGGAGGUGGAUUUUGUUUAUUUUUUUAGCUCAUUUCCAGGGGUGGGAAUUUUUUUUUAAUAUGUGUCAUGAAUAAAGUUGUUUUUGAUA: 0.185
UCCUGUGCUACACAUCGUAUGUACCGAAUCGGGUUUUUUGGGUUUUUUGGGUUUUUUGGAAAGUAUUAUGUUACGCCGUUCGGAUCUGCA: 0.17
GCAGGAAGUAAAAACAAAUGGAAAUGCUUCGGAUAGUGGCAGGGGUGGGGAAAGCUAAGGAAAGGGUGGGAUGGGAGUGGGUAAAGAGUU: 0.325
UCUCAGCACCCUCGUGAAACUGGACAAGAAGCCAGUGGAGACCAACGGUCCUGAUGCCAAUCACGAGUACAGUACAAGCAGCCAGCAUAU: -0.465
AAGUCCUGUGCUACACAUCGUAUGUACCGAAUCAAAUUUUUAAAUUUAAACCCAAAAAAGUAUUAUGUUACGCCGUUCGGAUCUGCACUU: 0.098
GUCCUGUGCUACACAUCGUAUGUACCGAAUCGGGGUGGGGUUUUUGGGGAAAAAGGGGAAAGUAUUAUGUUACGCCGUUCGGAUCUGCAC: 0.483
CUGUGCUACACAUCGUAUGUACCGAAUCGGGGCCCCCCGGGGCCCCCCGGGGCCCCCCGGGGAAAGUAUUAUGUUACGCCGUUCGGAUCU: -1.59
UUGUGAUUAAGAUUUGUUCUUUUUCUCCCCUCUCUAUAGGAAGAUGAUCCCUAUGAUCUUGAAGAUGUUUCUGCACAGAAAUGAGGGAAA: 0.173

Series 5
Target: Histone acetyltransferase KAT6A, winged helix 1, GST fusion (KAT6A, Homo sapiens, UniProt Q92794, residues 1-85)
Method: protein binding microarray
Molecule type: double-stranded DNA, one strand shown
Sample: in vitro
Concentration: not given
Setting: 8-mer, flanks averaged, mean of 2 arrays, mostly near background
Relative to: not given
Reading: higher = stronger binding
Measurement: E-score
Construct (chain): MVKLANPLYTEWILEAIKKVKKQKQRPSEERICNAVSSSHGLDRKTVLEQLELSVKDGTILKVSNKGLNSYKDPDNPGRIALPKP
GTACTCGA: -0.0339
ACGAGCCT: -0.0593
AGGAGGGC: -0.201
CGGATCGA: 0.0731
ACTATGTC: 0.0722
CTTGTTTA: -0.15
GAACTGAA: -0.0297
CCAGGGGA: -0.0437
GTAAGAGA: 0.0458
CCTAAAGA: -0.0526
CCCGCAGG: 0.264
AACCGCCG: 0.407
AGAAAGTC: -0.0509
GAATGCCA: -0.00607
AGGACTAC: -0.037
AATCGACG: 0.0325
AAAGGCGT: 0.0989
ATGGGTGG: -0.14

Series 6
Target: Protein max, full length (MAX, Homo sapiens, UniProt P61244-2, residues 1-151)
Method: protein-binding microarray
Molecule type: double-stranded DNA, one strand shown
Sample: in vitro
Concentration: not given
Setting: k-mer, scored over probes, only values ≥0.25
Reading: higher = stronger binding
Measurement: E-score
CCCGTGTA: 0.338
CCACACCA: 0.254
ACCATGTG: 0.49
ACGCGGGG: 0.324
CCTTGTGC: 0.274
GGCGTGGA: 0.348
GCATGCGA: 0.39
ATGCGGGA: 0.259
ACATGGAC: 0.291
AAACACGT: 0.445
CGCCACCC: 0.317
CGCATTGC: 0.268
